Assay results collected from several papers.
Lines come from different studies, so protocols differ. “And” joins repeats or separate records; there may be more than shown.
RPS6KA5: Ribosomal protein S6 kinase alpha-5 (RPS6KA5, Homo sapiens, UniProt O75582)
RPS6KA5 N-terminal kinase domain: Ribosomal protein S6 kinase alpha-5, N-terminal kinase domain (RPS6KA5, Homo sapiens, UniProt O75582)
RPS6KA5 C-terminal kinase domain: Ribosomal protein S6 kinase alpha-5, C-terminal kinase domain (RPS6KA5, Homo sapiens, UniProt O75582)

`Cc1ccc(C)c(-c2ccc3nc(NC(=O)C4CCCCC4)nn3c2)c1` has a remaining activity of 68% (RPS6KA5; enzyme activity, Dundee kinase panel; 10 µM).
The inhibition of `CS(=O)(=O)Nc1cccc(-c2csc3cnc(Nc4ccc(N5CCN(CCCCCOc6cccc7c6C(=O)N(C6CCC(=O)NC6=O)C7=O)CC5)cc4)nc23)c1` (stereo not shown) is reported as -11.1% (RPS6KA5 N-terminal kinase domain; probe labelling, inhibitor, KiNativ chemoproteomics; MOLT-4; 1 µM).
The remaining binding of `CNC(=O)C1CCN(c2cc(C)c(F)cc2NC(=O)c2ccc(-c3cc(O)ccc3C)c(C)c2)CC1` is reported as 100% (RPS6KA5 C-terminal kinase domain; binding, competition with immobilised ligand; 1 µM).
`COc1ccc(NC(=O)Nc2ccc3c(c2)C(=O)N(C(C)CO)CC(C)C(CN(C)Cc2ccc4c(c2)OCO4)O3)cc1` (stereo not shown) gave a remaining activity of 103% (RPS6KA5; kinase activity, KinaseProfiler; 0.03 µM, species human; reference: control).
With `NC(=O)[C@@H](O)C[C@H]1CCc2sc3ncnc(O[C@H]4CC[C@H](N5CCOCC5)CC4)c3c21` the inhibition was 17% (RPS6KA5; enzyme activity, inhibitor; 10 µM).
With `CCn1cc(C(=O)O)c(=O)c2c(N)c(F)c(NC3CCCCC3)cc21` the inhibition was 12.6% (RPS6KA5; kinase activity; 0.1 µM, with: ATP at Km).
For `Cc1nc2c(F)cc(-c3nc(Nc4ccc(CNC(=O)CCCCCCC(=O)NO)cc4)ncc3F)cc2n1C(C)C`, the inhibition was 84% (RPS6KA5; enzyme activity, inhibitor; 1 µM).
For `COc1cc(Nc2nc(C)cc(-c3cnn4nc(OC)ccc34)n2)cc(C(F)(F)F)c1`, the remaining binding was 100% (RPS6KA5 N-terminal kinase domain; binding, competition with immobilised ligand; 1 µM).
With `C=CC(=O)N1CCCC(n2c(=O)c3ncccc3n(Cc3ccc(Oc4ccccc4)cc3)c2=O)C1` (stereo not shown) the remaining binding was 90% (RPS6KA5 N-terminal kinase domain; binding, competition with immobilised ligand; 1 µM).
`Cc1cccc(O[C@H]2CCC[C@@H](C(C)CNCc3ccncc3)C2)c1` (relative stereo) gave an inhibition of -14% (RPS6KA5; enzyme activity, inhibitor; 10 µM).
`CCN1CCN(Cc2ccc(C(=O)Nc3ccc(C)c(NCc4cnc5[nH]ccc5c4OC)c3)cc2C(F)(F)F)CC1` has a remaining binding of 89% (RPS6KA5 C-terminal kinase domain; binding, competition with immobilised ligand; 1 µM).
For `CC(C)=CC1OC(C)(C)C2C=C3C(=O)C(Cl)=CC(O)C3C3C(O)C4OC4C(=O)C132` (stereo not shown), the remaining binding was 81% (RPS6KA5 C-terminal kinase domain; binder, KINOMEscan competition binding; 10 µM; reference: DMSO control).
For `Cc1ccc(-c2c(/C=C(\C#N)C(=O)NC(C)C)n(CCCO)c3ncnc(N)c23)cc1`, the remaining binding was 81% (RPS6KA5 C-terminal kinase domain; binding, competition with immobilised ligand; 1 µM).
`Nc1ncc(-c2cc(-c3cnn(CC(F)(F)F)c3)ncc2F)nc1C(=O)NC1CNCC(F)C1` (stereo not shown) has a remaining activity of 98.5% (RPS6KA5; enzyme activity; 1 µM; reference: DMSO control).
`Cc1cnc2nc1Nc1cccc(c1)COC/C=C/COCc1cc(ccc1OCCN1CCOCC1)N2` gave a remaining binding of 100% (RPS6KA5 N-terminal kinase domain; binding, competition with immobilised ligand; 0.1 µM).
With `C=CC(=O)Nc1cccc(-c2cnc3[nH]cc(C(=O)NC(C)(C)C)c3n2)c1` the inhibition was 15% and -1% (RPS6KA5; kinase activity; 0.1 µM).
For `Nc1ncc2c(n1)-c1c([nH]c3ccc(C4=CCOCC4)cc13)CCC2`, the remaining binding was 78% (RPS6KA5 C-terminal kinase domain; binding, competition with immobilised ligand; 1 µM).
With `C=CC(=O)Nc1cc(-c2nn(C3CCN(CCNC(=O)[C@H](C)CCC45CC6CC(CC(C6)C4)C5)CC3)c3ncnc(N)c23)ccc1Oc1ccccc1` the inhibition was 30.4% (RPS6KA5 N-terminal kinase domain; inhibitor, KiNativ profiling; biochemical; 2 µM).
With `COc1cc(Nc2nccc(-c3cnn4nc(OC)ccc34)n2)cc(C(F)(F)F)c1` the remaining binding was 100% (RPS6KA5 N-terminal kinase domain; binding, competition with immobilised ligand; 1 µM).
With `Cc1cccc(-c2ccc3nc(NC(=O)C4CCOCC4)nn3c2)c1` the remaining activity was 56% (RPS6KA5; enzyme activity, Dundee kinase panel; 10 µM).
`COc1c(Cl)cccc1Nc1c(-c2ccncc2C#C[C@@]2(C)CCCN2C(=O)/C=C/CN(C)C)[nH]c2c1C(=O)NCC2` gave a remaining binding of 95% (RPS6KA5 C-terminal kinase domain; binding, competition with immobilised ligand; 3 µM).
With `O=C=[N][Ru-4]123([n]4c5ccc(O)cc5c5c6c(c7cc(F)c[n+]1c7c54)C(=O)NC6=O)[S+]1CC[S+]2CC[S+]3CC1` (stereo not shown) the remaining activity was 15% (RPS6KA5; enzyme activity; 100 nM, human enzyme, with: 10 µM ATP; reference: untreated).
Under “log2 LFQ intensity”, `N[C@H]1CC[C@H](Nc2nccc(-c3cccnc3Oc3ccc(NC(=O)NC4CC4)c4ccccc34)n2)CC1` is recorded as 20.6 and 21.5 and 21.7 and 20.2 (RPS6KA5; kinobead competition pulldown; HEK293/HCT116 lysate mixture; 10 µM, 1 h, 4 °C; lower = stronger competition).
`COCC12C(=O)NC3C4(C(OC)CC1O)C1CC5(O)C(OC)C(O)C(OC(C)=O)(C1C5OC(=O)c1ccccc1)C3(O)C(OC)C24` (stereo not shown) has a remaining activity of 86% and 100% (RPS6KA5; kinase activity, inhibitor, ProQinase kinase profiling; 25 µM; reference: control).
`CNC1C[S+]2CC[S+]3CC[S+](C1)[Ru-4]321([N]=C=S)[n]2c3ccc(OC)cc3c3c4c(c5cc(F)c[n+]1c5c32)C(=O)NC4=O` (stereo not shown) has a remaining binding of 35% (RPS6KA5 C-terminal kinase domain; KinomeScan; 0.1 µM; reference: untreated).

Repeated from above:
`COc1c(Cl)cccc1Nc1c(-c2ccncc2C#C[C@@]2(C)CCCN2C(=O)/C=C/CN(C)C)[nH]c2c1C(=O)NCC2` gave a remaining binding of 95% (RPS6KA5 C-terminal kinase domain; binding, competition with immobilised ligand; 3 µM).
With `O=C=[N][Ru-4]123([n]4c5ccc(O)cc5c5c6c(c7cc(F)c[n+]1c7c54)C(=O)NC6=O)[S+]1CC[S+]2CC[S+]3CC1` (stereo not shown) the remaining activity was 15% (RPS6KA5; enzyme activity; 100 nM, human enzyme, with: 10 µM ATP; reference: untreated).
Under “log2 LFQ intensity”, `N[C@H]1CC[C@H](Nc2nccc(-c3cccnc3Oc3ccc(NC(=O)NC4CC4)c4ccccc34)n2)CC1` is recorded as 20.6 and 21.5 and 21.7 and 20.2 (RPS6KA5; kinobead competition pulldown; HEK293/HCT116 lysate mixture; 10 µM, 1 h, 4 °C; lower = stronger competition).
